# Assay results pooled from the literature.
# A part holds a random share of what one study measured. Several values in a cell are separate wells, animals, samples, runs or records.
# Sequence of UniProt P42336 (whole entry, unmodified, looked up): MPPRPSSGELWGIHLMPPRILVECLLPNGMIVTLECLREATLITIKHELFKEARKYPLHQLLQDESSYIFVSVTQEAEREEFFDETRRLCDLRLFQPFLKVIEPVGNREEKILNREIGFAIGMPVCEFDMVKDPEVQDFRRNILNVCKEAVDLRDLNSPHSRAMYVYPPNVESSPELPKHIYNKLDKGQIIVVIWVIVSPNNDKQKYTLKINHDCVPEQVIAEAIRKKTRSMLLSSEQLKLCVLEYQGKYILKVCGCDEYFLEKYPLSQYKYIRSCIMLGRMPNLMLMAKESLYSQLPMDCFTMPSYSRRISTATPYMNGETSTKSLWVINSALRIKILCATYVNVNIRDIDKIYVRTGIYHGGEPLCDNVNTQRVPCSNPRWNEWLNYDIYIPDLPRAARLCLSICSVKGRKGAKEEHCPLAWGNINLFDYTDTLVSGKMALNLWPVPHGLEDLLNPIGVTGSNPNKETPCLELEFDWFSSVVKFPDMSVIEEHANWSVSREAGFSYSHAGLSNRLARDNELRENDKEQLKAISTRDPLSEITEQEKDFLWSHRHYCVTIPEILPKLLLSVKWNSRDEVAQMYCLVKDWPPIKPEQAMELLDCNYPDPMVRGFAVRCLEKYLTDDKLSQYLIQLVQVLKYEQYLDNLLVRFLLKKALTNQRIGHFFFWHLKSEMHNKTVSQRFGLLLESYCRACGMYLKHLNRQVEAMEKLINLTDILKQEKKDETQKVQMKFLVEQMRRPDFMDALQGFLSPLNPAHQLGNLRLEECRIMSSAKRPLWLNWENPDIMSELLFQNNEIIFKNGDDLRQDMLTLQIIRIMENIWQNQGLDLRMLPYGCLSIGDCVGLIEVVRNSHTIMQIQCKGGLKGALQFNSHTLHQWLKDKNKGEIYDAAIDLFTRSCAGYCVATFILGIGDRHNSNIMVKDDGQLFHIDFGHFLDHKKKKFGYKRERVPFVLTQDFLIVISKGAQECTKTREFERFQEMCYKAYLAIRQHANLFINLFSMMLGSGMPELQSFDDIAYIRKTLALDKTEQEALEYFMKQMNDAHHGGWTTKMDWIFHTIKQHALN
# Sequence of UniProt Q07002 (whole entry, looked up): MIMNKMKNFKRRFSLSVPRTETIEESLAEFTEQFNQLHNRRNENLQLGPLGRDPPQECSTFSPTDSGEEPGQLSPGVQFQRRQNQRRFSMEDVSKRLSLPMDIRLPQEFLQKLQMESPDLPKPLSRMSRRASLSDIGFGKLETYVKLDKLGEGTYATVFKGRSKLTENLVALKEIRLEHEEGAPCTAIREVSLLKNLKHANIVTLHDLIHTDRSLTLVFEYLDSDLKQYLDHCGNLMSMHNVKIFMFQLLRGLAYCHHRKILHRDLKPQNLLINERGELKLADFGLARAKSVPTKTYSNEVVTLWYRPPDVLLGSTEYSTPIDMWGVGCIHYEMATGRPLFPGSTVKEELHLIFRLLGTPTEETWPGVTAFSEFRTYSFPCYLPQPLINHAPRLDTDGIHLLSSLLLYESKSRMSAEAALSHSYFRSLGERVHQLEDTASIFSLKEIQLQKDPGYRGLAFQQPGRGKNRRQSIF
# Sequence of UniProt Q9H1R3 (whole entry, looked up): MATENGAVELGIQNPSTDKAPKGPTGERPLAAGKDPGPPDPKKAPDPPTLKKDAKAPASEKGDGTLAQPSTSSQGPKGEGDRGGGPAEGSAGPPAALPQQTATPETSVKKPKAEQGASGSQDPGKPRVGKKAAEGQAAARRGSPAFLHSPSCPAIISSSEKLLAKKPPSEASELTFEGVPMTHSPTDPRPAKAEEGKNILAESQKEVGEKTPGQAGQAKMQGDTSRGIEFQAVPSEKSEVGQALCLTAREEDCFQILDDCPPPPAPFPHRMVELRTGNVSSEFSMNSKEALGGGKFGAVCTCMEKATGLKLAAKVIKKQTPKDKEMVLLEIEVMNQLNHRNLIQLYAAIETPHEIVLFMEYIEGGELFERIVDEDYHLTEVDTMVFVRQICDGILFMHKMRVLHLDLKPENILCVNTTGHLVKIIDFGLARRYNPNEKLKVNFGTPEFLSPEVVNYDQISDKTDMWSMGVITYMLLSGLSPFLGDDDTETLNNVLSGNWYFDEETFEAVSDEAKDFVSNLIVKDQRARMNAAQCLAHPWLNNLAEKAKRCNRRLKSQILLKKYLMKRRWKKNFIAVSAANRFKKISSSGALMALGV
# Sequence of UniProt P49759 (whole entry, looked up): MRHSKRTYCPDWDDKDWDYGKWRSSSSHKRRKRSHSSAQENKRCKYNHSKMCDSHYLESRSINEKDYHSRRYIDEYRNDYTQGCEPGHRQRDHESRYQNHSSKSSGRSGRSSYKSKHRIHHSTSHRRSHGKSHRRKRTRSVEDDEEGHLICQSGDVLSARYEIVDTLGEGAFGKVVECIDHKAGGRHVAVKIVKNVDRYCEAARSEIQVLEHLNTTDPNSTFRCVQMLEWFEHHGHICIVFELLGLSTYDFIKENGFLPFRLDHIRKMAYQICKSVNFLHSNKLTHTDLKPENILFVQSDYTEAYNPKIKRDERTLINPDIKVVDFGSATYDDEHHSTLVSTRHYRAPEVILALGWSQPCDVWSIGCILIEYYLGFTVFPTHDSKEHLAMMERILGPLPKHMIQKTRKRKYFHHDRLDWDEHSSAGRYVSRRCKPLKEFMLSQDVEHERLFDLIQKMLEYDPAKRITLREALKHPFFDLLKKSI
# Sequence of UniProt Q96KB5 (whole entry, looked up): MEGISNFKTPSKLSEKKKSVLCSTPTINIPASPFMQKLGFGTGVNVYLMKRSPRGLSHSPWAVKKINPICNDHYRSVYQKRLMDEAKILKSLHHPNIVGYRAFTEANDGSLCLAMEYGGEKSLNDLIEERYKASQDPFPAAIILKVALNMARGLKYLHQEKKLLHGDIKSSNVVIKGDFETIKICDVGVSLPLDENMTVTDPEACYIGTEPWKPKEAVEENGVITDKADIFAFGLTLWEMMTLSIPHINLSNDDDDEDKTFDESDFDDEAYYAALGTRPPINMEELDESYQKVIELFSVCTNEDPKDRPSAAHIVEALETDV
# Sequence of UniProt Q00537 (whole entry, looked up): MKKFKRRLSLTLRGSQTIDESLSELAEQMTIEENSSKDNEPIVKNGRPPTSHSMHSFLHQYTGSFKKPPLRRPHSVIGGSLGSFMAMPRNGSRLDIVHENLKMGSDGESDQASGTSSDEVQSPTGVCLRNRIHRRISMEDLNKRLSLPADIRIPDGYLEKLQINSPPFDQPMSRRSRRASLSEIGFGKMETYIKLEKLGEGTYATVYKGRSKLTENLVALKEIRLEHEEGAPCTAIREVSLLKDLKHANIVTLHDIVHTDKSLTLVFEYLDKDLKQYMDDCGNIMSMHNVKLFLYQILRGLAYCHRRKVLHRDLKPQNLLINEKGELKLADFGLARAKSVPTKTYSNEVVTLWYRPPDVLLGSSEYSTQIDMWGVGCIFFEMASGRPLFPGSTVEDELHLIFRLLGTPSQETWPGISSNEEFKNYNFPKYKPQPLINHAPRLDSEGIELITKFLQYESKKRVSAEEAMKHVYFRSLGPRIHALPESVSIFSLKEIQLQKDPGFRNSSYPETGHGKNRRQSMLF
# Sequence of UniProt Q8IY84 (whole entry, looked up): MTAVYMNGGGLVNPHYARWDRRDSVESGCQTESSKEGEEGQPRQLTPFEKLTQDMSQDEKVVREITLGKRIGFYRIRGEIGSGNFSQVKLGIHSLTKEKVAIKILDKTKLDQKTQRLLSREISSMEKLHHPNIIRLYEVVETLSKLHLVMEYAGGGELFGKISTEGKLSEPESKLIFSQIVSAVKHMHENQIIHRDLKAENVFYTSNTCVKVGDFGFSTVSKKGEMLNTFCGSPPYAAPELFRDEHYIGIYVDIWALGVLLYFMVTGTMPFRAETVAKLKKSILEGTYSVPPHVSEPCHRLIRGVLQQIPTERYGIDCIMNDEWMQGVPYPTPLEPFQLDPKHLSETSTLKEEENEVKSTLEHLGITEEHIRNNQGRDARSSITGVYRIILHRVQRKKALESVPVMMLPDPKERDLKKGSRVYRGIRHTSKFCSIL
# Sequence of UniProt P19784 (whole entry, looked up): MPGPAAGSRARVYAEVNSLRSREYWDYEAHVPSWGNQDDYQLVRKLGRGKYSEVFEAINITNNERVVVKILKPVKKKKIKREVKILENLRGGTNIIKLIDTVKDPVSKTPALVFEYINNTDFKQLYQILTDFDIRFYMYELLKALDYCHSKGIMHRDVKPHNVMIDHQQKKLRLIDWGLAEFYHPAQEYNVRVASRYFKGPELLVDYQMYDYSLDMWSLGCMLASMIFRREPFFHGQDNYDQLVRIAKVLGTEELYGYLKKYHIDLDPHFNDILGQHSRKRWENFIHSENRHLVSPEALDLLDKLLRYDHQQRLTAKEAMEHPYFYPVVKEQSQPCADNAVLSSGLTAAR

# Study 1 — observed: enzyme activity; tested at: 5 µM
# Compound: O=C(Nc1cnn(-c2csc(C(=O)NC3COC3)c2)c1)Nc1c(F)cccc1Cl
target,assay,scale,remaining activity [%]
"Dual specificity protein kinase CLK1 (CLK1, Homo sapiens, UniProt P49759)",,baseline: untreated control,74.2
"Cyclin-dependent kinase 1, with cyclin B (CDK1, Homo sapiens, UniProt P06493)",,baseline: untreated control,105
"Myosin-IIIa (MYO3A, Homo sapiens, UniProt Q8NEV4)",,baseline: untreated control,75.8
"Cyclin-dependent kinase 18, with cyclin Y (CDK18, Homo sapiens, UniProt Q07002)",inhibitor,,91.9
"Lymphokine-activated killer T-cell-originated protein kinase (PBK, Homo sapiens, UniProt Q96KB5)",,baseline: untreated control,95.7

# Study 2 — cell line: mouse MPNST tumor cells; technique: high-content immunofluorescence imaging; item: nuclear SOX9; tested at: 10 µM; time: 12 h; notes: mean of 2 replicates; baseline: DMSO control; direction: higher = more nuclear SOX9
Compound,nuclear SOX9 intensity
CCOCCn1c(N2CCCN(C)CC2)nc2ccccc21,124 % of DMSO
CC[N+](C)(CC)CCC[n+]1c(-c2ccccc2)c2cc(N)ccc2c2ccc(N)cc21,97.7 % of DMSO
N[C@@H](CC(=O)N1CCn2c(nnc2C(F)(F)F)C1)Cc1[nH]nc2c(F)c(F)ccc12,109 % of DMSO
NCCc1cc[nH]n1,99.7 % of DMSO
CCCN(CCc1cccs1)[C@H]1CCc2c(O)cccc2C1,114 % of DMSO
N[C@@H](CCC(=O)N[C@@H](CSN=O)C(=O)NCC(=O)O)C(=O)O,90.6 % of DMSO
Clc1ccc(C(c2ccccc2Cl)C(Cl)Cl)cc1 (stereo not shown),126 % of DMSO and 109 % of DMSO

# Study 3 — observed: cell-free assay; technique: competition with immobilised ligand; tested at: 1 µM
# SMILES: O=C(O)[C@H]1[C@H](Cn2nnc3ccccc3c2=O)CC[C@@H]1C(=O)c1ccc(OCCC2CCOCC2)cc1
target,remaining binding
"Phosphatidylinositol 4,5-bisphosphate 3-kinase catalytic subunit alpha isoform (PIK3CA, Homo sapiens, UniProt P42336, M1043I)",100%
"Cyclin-dependent kinase 17 (CDK17, Homo sapiens, UniProt Q00537)",74%
"1-phosphatidylinositol 3-phosphate 5-kinase (PIKFYVE, Homo sapiens, UniProt Q9Y2I7)",72%
"Phosphatidylinositol 4,5-bisphosphate 3-kinase catalytic subunit alpha isoform (PIK3CA, Homo sapiens, UniProt P42336, H1047L)",71%
"Mitogen-activated protein kinase kinase kinase 20 (MAP3K20, Homo sapiens, UniProt Q9NYL2)",100%
"Death-associated protein kinase 3 (DAPK3, Homo sapiens, UniProt O43293)",99%
"Serine/threonine-protein kinase TAO1 (TAOK1, Homo sapiens, UniProt Q7L7X3)",100%
"Receptor-type tyrosine-protein kinase FLT3 (FLT3, Homo sapiens, UniProt P36888)",99%
"Casein kinase II subunit alpha' (CSNK2A2, Homo sapiens, UniProt P19784)",79%
"Serine/threonine-protein kinase MARK2 (MARK2, Homo sapiens, UniProt Q7KZI7)",100%
"Serine/threonine-protein kinase NIM1 (NIM1K, Homo sapiens, UniProt Q8IY84)",93%
"Bone morphogenetic protein receptor type-2 (BMPR2, Homo sapiens, UniProt Q13873)",100%
"Interleukin-1 receptor-associated kinase 1 (IRAK1, Homo sapiens, UniProt P51617)",70%
"Myosin light chain kinase 2, skeletal/cardiac muscle (MYLK2, Homo sapiens, UniProt Q9H1R3)",83%
"Serine/threonine-protein kinase PLK3 (PLK3, Homo sapiens, UniProt Q9H4B4)",100%

# Study 4 — observed: enzyme activity; action: inhibitor; tested at: 10 µM
# Target: Calcium/calmodulin-dependent protein kinase type II subunit alpha (CAMK2A, Homo sapiens, UniProt Q9UQM7)
# Sequence of UniProt Q9UQM7 (whole entry, looked up): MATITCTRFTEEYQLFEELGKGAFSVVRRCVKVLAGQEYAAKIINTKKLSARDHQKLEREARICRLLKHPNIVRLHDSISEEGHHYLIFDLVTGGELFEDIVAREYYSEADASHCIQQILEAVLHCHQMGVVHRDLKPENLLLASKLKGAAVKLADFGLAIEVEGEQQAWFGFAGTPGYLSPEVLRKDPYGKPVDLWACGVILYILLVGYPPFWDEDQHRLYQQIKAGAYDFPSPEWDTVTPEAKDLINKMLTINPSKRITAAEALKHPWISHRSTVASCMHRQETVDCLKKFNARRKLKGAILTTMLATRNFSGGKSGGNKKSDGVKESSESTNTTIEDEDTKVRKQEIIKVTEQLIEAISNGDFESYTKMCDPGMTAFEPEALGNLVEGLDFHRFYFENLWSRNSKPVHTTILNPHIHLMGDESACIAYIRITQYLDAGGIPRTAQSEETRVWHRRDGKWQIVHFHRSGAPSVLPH
Compound,inhibition
CC(C)CCC(=O)O,-48%
CCCSSC,-10%
C/C1=C\CC(C)(C)/C=C/C(=O)/C(C)=C/CC1,-27%
OCC1=C[C@@H](O)[C@]2(O[C@@H]3O[C@H](CO)[C@@H](O)[C@H](O)[C@H]3O)C=CO[C@@H](O[C@@H]3O[C@H](CO)[C@@H](O)[C@H](O)[C@H]3O)[C@H]12,8%

# For quick reference, copied from above (study 3):
target,remaining binding
"Phosphatidylinositol 4,5-bisphosphate 3-kinase catalytic subunit alpha isoform (PIK3CA, Homo sapiens, UniProt P42336, H1047L)",71%
"Mitogen-activated protein kinase kinase kinase 20 (MAP3K20, Homo sapiens, UniProt Q9NYL2)",100%
"Death-associated protein kinase 3 (DAPK3, Homo sapiens, UniProt O43293)",99%
"Serine/threonine-protein kinase TAO1 (TAOK1, Homo sapiens, UniProt Q7L7X3)",100%
"Receptor-type tyrosine-protein kinase FLT3 (FLT3, Homo sapiens, UniProt P36888)",99%
